{"data": "Measurements of several laboratories", "method": "steady-state kinetics", "B1": "Paox H64N (Mus musculus, UniProt Q8C0L6); chain MAFPGPRVLVVGSGIAGLGAAQKLCSHRAAPHLRVLEATASAGGRIRSERCFGGVVELGAHWINGPSQDNPVFQLAAEFGLLGEKELSEENQLVDTGGHVALPSMIWSSSGTSVSLELMTEMARLFYGLIERTREFLNESETPMASVGEFLKKEISQQVASWTEDDEDTRKRKLAILNTFFNIECCVSGTHSMDLVALAPFGEYTVLPGLDCILAGGYQGLTDRILASLPKDTVAFDKPVKTIHWNGSFQEAAFPGETFPVLVECEDGARLPAHHVIVTVPLGFLKEHQDTFFEPPLPAKKAEAIKKLGFGTNNKIFLEFEEPFWEPDCQFIQVVWEDTSPLQDTALSLQDTWFKKLIGFLVQPSFESSHVLCGFIAGLESEFMETLSDEEVLLSLTQVLRRVTGNPQLPAAKSVRRSQWHSAPYTRGSYSYVAVGSTGDDLDLMAQPLPEDGTGTQLQVLFAGEATHRTFYSTTHGALLSGWREADRLVSLWDSQVEQSRPRL", "B2": "protein G96D (Streptomyces coelicolor, UniProt P16544); chain MATQDSEVALVTGATSGIGLEIARRLGKEGLRVFVCARGEEGLRTTLKELREAGVEADGRTCDVRSVPEIEALVAAVVERYGPVDVLVNNAGRPGDGATAELADELWLDVVETNLTGVFRVTKQVLKAGGMLERGTGRIVNIASTGGKQGVVHAAPYSASKHGVVGFTKALGLELARTGITVNAVCPGFVETPMAASVREHYSDIWEVSTEEAFDRITARVPIGRYVQPSEVAEMVAYLIGPGAAAVTAQALNVCGGLGNY", "B3": "BshA S17A (Bacillus subtilis, UniProt P42982); chain MRKLKIGITCYPSVGGAGIIATELGKQLAEKGHEIHFITSSIPFRLNTYHPNIHFHEVEVNQYAVFKYPPYDLTLASKIAEVAERENLDIIHAHYALPHAVCAYLAKQMLKRNIGIVTTLHGTDITVLGYDPSLKDLIRFAIESSDRVTAVSSALAAETYDLIKPEKKIETIYNFIDERVYLKKNTAAIKEKHGILPDEKVVIHVSNFRKVKRVQDVIRVFRNIAGKTKAKLLLVGDGPEKSTACELIRKYGLEDQVLMLGNQDRVEDLYSISDLKLLLSEKESFGLVLLEAMACGVPCIGTNIGGIPEVIKNNVSGFLVDVGDVTAATARAMSILEDEQLSNRFTKAAIEMLENEFSSKKIVSQYEQIYADLAEPE", "B4": "SACOL1063 (Staphylococcus aureus, UniProt Q5HH30); chain MFSKVNNQKMLEDCFYIRKKVFVEEQGVPEESEIDEYESESIHLIGYDNGQPVATARIRPINETTVKIERVAVMKSHRGQGMGRMLMQAVESLAKDEGFYVATMNAQCHAIPFYESLNFKMRGNIFLEEGIEHIEMTKKLTSLN", "B5": "engA (Bacillus subtilis, UniProt P50743); chain MGKPVVAIVGRPNVGKSTIFNRIAGERISIVEDTPGVTRDRIYSSAEWLNYDFNLIDTGGIDIGDEPFLAQIRQQAEIAMDEADVIIFMVNGREGVTAADEEVAKILYRTKKPVVLAVNKLDNTEMRANIYDFYSLGFGEPYPISGTHGLGLGDLLDAVAEHFKNIPETKYNEEVIQFCLIGRPNVGKSSLVNAMLGEERVIVSNVAGTTRDAVDTSFTYNQQEFVIVDTAGMRKKGKVYETTEKYSVLRALKAIDRSEVVAVVLDGEEGIIEQDKRIAGYAHEAGKAVVIVVNKWDAVDKDESTMKEFEENIRDHFQFLDYAPILFMSALTKKRIHTLMPAIIKASENHSLRVQTNVLNDVIMDAVAMNPTPTHNGSRLKIYYATQVSVKPPSFVVFVNDPELMHFSYERFLENRIRDAFGFEGTPIKIFARARK", "B6": "carbamoyl phosphate synthetase large subunit G575K (Escherichia coli, UniProt P00968); chain PKRTDIKSILILGAGPIVIGQACEFDYSGAQACKALREEGYRVILVNSNPATIMTDPEMADATYIEPIHWEVVRKIIEKERPDAVLPTMGGQTALNCALELERQGVLEEFGVTMIGATADAIDKAEDRRRFDVAMKKIGLETARSGIAHTMEEALAVAADVGFPCIIRPSFTMGGSGGGIAYNREEFEEICARGLDLSPTKELLIDESLIGWKEYEMEVVRDKNDNCIIVCSIENFDAMGIHTGDSITVAPAQTLTDKEYQIMRNASMAVLREIGVETGGSNVQFAVNPKNGRLIVIEMNPRVSRSSALASKATGFPIAKVAAKLAVGYTLDELMNDITGGRTPASFEPSIDYVVTKIPRFNFEKFAGANDRLTTQMKSVGEVMAIGRTQQESLQKALRGLEVGATGFDPKVSLDDPEALTKIRRELKDAGADRIWYIADAFRAGLSVDGVFNLTNIDRWFLVQIEELVRLEEKVAEVGITGLNADFLRQLKRKGFADARLAKLAGVREAEIRKLRDQYDLHPVYKRVDTCAAEFATDTAYMYSTYEEECEANPSTDREKIMVLGGGPNRIGQKIEFDYCCVHASLALREDGYETIMVNCNPETVSTDYDTSDRLYFEPVTLEDVLEIVRIEKPKGVIVQYGGQTPLKLARALEAAGVPVIGTSPDAIDRAEDRERFQHAVERLKLKQPANATVTAIEMAVEKAKEIGYPLVVRPSYVLGGRAMEIVYDEADLRRYFQTAVSVSNDAPVLLDHFLDDAVEVDVDAICDGEMVLIGGIMEHIEQAGVHSGDSACSLPAYTLSQEIQDVMRQQVQKLAFELQVRGLMNVQFAVKNNEVYLIEVNPRAARTVPFVSKATGVPLAKVAARVMAGKSLAEQGVTKEVIPPYYSVKEVVLPFNKFPGVDPLLGPEMRSTGEVMGVGRTFAEAFAKAQLGSNSTMKKHGRALLSVREGDKERVVDLAAKLLKQGFELDATHGTAIVLGEAGINPRLVNKVHEGRPHIQDRIKNGEYTYIINTTSGRRAIEDSRVIRRSALQYKVHYDTTLNGGFATAMALNADATEKVISVQEMHAQIK", "B7": "Tcur_2987 W263F (Thermomonospora curvata, UniProt D1A807); chain ACSEERAAGARPSATQTTGTATEPFHGPHQAGIATPPQAHAVFLGLDLRKGTGRKELGRLMRLLTDDARRLTQGRPALADPEPDLAPLPSRLTFTFGFGPGLFKAAGLEKQRPEGLRPLPPFKVDRLEDRWSGGDLLVQICCDDPITLAHALRMTVKDARAFTRVRWVQRGFRRSPGVQSSGATQRNLMGQLDGTVNPVPGTADFDQAVWVQDGPEWLRGGTTLVLRRIRMELEKFDEADPAGKEFAVGRRLTSGAPLTGRHEHDEPDFDAVDSAGFPVIAENAHIRLAHVDSPRLRMLRRPYNYDEGLTADGRSDAGLLFAAYQADIDRQFIPVQRRLDEGGDLLNLWTTPIGSAVFAIPPGCDENGWIGQGLLG", "B8": "Mgst1 unactivated (Rattus norvegicus, UniProt P08011); chain ADLKQLMDNEVLMAFTSYATIILAKMMFLSSATAFQRLTNKVFANPEDCAGFGKGENAKKFLRTDEKVERVRRAHLNDLENIVPFLGIGLLYSLSGPDLSTALIHFRIFVGARIYHTIAYLTPLPQPNRGLAFFVGYGVTLSMAYRLLRSRLYL", "B9": "MSS116 Q412A (Saccharomyces cerevisiae, UniProt P15424); chain LYNDGNRDQRNFGRNQRNNNSNRYRNSRFNSRPRTRSREDDDEVHFDKTTFSKLIHVPKEDNSKEVTLDSLLEEGVLDKEIHKAITRMEFPGLTPVQQKTIKPILSSEDHDVIARAKTGTGKTFAFLIPIFQHLINTKFDSQYMVKAVIVAPTRDLALQIEAEVKKIHDMNYGLKKYACVSLVGGTDFRAAMNKMNKLRPNIVIATPGRLIDVLEKYSNKFFRFVDYKVLDEADRLLEIGFRDDLETISGILNEKNSKSADNIKTLLFSATLDDKVQKLANNIMNKKECLFLDTVDKNEPEAHERIDQSVVISEKFANSIFAAVEHIKKQIKERDSNYKAIIFAPTVKFTSFLCSILKNEFKKDLPILEFHGKITANKRTSLVKRFKKDESGILVCTDVGARGMDFPNVHEVLQIGVPSELANYIHRIGRTARSGKEGSSVLFICKDELPFVRELEDAKNIVIAKQEKYEPSEEIKSEVLEAVTEEPEDISDIVISLISSYRSCIKEYRFSERRILPEIASTYGVLLNDPQLKIPVSRRFLDKLGLSRSPIGKAMFEIRDYSSRDGNNKSYDYDDDSEISFRGNKNYNNRSQNRDYDDEPFRRSNNNRRSFSRSNDKNNYSSRNSNIY", "note": "Lines come from different studies, so protocols differ. Numbers after ± are the reported error.", "UniProt A8M783, sequence (whole entry, looked up)": "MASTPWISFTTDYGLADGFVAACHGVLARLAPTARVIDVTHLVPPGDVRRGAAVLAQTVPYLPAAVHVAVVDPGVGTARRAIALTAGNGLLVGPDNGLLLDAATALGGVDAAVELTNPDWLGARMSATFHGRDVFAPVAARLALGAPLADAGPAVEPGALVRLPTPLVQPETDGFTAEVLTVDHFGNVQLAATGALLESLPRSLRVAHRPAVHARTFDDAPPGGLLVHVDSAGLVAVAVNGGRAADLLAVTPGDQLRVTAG", "UniProt Q7L266, sequence (whole entry, looked up)": "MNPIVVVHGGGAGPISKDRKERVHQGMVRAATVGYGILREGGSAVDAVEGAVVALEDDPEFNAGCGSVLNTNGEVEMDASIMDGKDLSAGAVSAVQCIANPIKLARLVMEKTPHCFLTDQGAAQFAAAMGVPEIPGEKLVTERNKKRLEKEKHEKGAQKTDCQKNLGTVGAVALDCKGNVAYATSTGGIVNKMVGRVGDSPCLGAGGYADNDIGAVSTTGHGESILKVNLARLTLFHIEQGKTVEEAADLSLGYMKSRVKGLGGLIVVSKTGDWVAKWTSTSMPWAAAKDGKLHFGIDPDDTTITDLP"}
{"Molecule": "B1 (Paox H64N)", "substrate": "CC(=O)NCCCNCCCCNCCCN", "pH": "pH 10", "temperature": "30 °C", "kcat": "4.1 ± 0.1 s⁻¹"}
{"Molecule": "B2 (protein G96D)", "substrate": "O[C@H]1CCCc2ccccc21", "pH": "pH 7.4", "setting": "phosphate 400 mM, NADPH 250 µM printed", "with": "NADP+, reverse reaction", "kcat": "0.021 ± 0.004 s⁻¹"}
{"Molecule": "B3 (BshA S17A)", "substrate": "O=C(O)C[C@H](O)C(=O)O", "pH": "pH 7.5", "temperature": "21 °C", "with": "UDP-GlcNAc 0–4 mM", "kcat": "2.5 ± 0.1 s⁻¹"}
{"Molecule": "pgmB H20N (Lactococcus lactis) (sequence not shown)", "substrate": "O=P(O)(O)OC[C@H]1O[C@@H](OP(=O)(O)O)[C@H](O)[C@@H](O)[C@@H]1O", "pH": "pH 7", "temperature": "25 °C", "kcat": "0.0303 ± 0.0005 s⁻¹"}
{"Molecule": "ASRGL1 (Homo sapiens, UniProt Q7L266)", "substrate": "CC(C)C[C@H](NC(=O)C[C@H](N)C(=O)O)C(=O)O", "pH": "pH 7.4", "temperature": "37 °C", "setting": "NaCl 100 mM", "kcat": "5 ± 0.2 s⁻¹"}
{"Molecule": "B4 (SACOL1063)", "substrate": "C[C@@H](O)[C@H](N)C(=O)O", "pH": "pH 8", "temperature": "37 °C", "setting": "Hill coefficient", "with": "AcCoA 1 mM, L-Thr 0-10 mM", "kcat": "10.3 s⁻¹"}
{"Molecule": "protein (Salinispora arenicola, UniProt A8M783)", "substrate": "C[S+](CC[C@H](N)C(=O)O)C[C@H]1O[C@@H](n2cnc3c(N)ncnc32)[C@H](O)[C@@H]1O", "pH": "pH 7.9", "temperature": "37 °C", "setting": "apparent", "kcat": "0.00833 s⁻¹"}
{"Molecule": "B5 (engA)", "substrate": "Nc1nc2c(ncn2[C@@H]2O[C@H](COP(=O)(O)OP(=O)(O)OP(=O)(O)O)[C@@H](O)[C@H]2O)c(=O)[nH]1", "pH": "pH 7.5", "temperature": "37 °C", "setting": "KCl 200 mM, free enzyme, apparent", "with": "GTP 0-1 mM", "kcat": "0.0228 ± 0.00119 s⁻¹"}
{"Molecule": "B6", "substrate": "Nc1ncnc2c1ncn2[C@@H]1O[C@H](COP(=O)(O)OP(=O)(O)OP(=O)(O)O)[C@@H](O)[C@H]1O", "pH": "pH 7.6", "setting": "KCl 100 mM", "with": "glutamine 10 mM, ornithine 10 mM", "kcat": "3.3 ± 0.18 s⁻¹"}
{"Molecule": "enzyme (Agrobacterium fabrum, UniProt Q7CU96)", "substrate": "O=C(O)C(=O)C[C@@H](O)[C@H](O)C(=O)O", "pH": "pH 7.9", "kcat": "1.6 ± 0.1 s⁻¹"}
{"Molecule": "B7 (Tcur_2987 W263F)", "substrate": "Nc1c(S(=O)(=O)O)cc(Nc2cccc(S(=O)(=O)CCOS(=O)(=O)O)c2)c2c1C(=O)c1ccccc1C2=O", "pH": "pH 3", "setting": "sigmoidal kinetics", "with": "H2O2 1 mM", "kcat": "49 ± 1 s⁻¹"}
{"Molecule": "B8 (Mgst1 unactivated)", "substrate": "CC(=O)c1ccc(Cl)c([N+](=O)[O-])c1", "pH": "pH 6.5", "temperature": "5 °C", "setting": "potassium phosphate 0.1 M, unactivated enzyme", "with": "GSH 5 mM", "kcat": "0.016 ± 0.001 s⁻¹"}
{"Molecule": "B9 (MSS116 Q412A)", "substrate": "Nc1ncnc2c1ncn2[C@@H]1O[C@H](COP(=O)(O)OP(=O)(O)OP(=O)(O)O)[C@@H](O)[C@H]1O", "pH": "pH 7.5", "temperature": "37 °C", "with": "ATP", "kcat": "0.0567 ± 0.00333 s⁻¹"}
{"Molecule": "Ptb (Listeria monocytogenes, UniProt Q8Y7B7)", "substrate": "CC(C)C(=O)SCCNC(=O)CCNC(=O)[C@H](O)C(C)(C)COP(=O)(O)OP(=O)(O)OC[C@H]1O[C@@H](n2cnc3c(N)ncnc32)[C@H](O)[C@@H]1OP(=O)(O)O", "pH": "pH 7.5", "temperature": "25 °C", "setting": "apparent", "kcat": "1260 ± 31.7 s⁻¹"}
{"Molecule": "enzyme (Pseudomonas putida, UniProt Q88P31)", "substrate": "NC(=O)c1ccc[n+]([C@@H]2O[C@H](COP(=O)(O)OP(=O)(O)OC[C@H]3O[C@@H](n4cnc5c(N)ncnc54)[C@H](OP(=O)(O)O)[C@@H]3O)[C@@H](O)[C@H]2O)c1", "pH": "pH 8", "temperature": "30 °C", "kcat": "102 ± 1 s⁻¹"}
{"Molecule": "CoA persulfide reductase CDR-RHD (Enterococcus faecalis, UniProt A0ACD6TF65)", "substrate": "N[C@@H](CSS)C(=O)O", "pH": "pH 8", "temperature": "25 °C", "setting": "Km not accurate", "with": "FAD 100 nM, NADH 100 µM", "kcat": "0.11 ± 0.11 s⁻¹"}
{"Molecule": "alanine aminopeptidase (Neisseria meningitidis, UniProt Q9JYV4)", "substrate": "NC(=O)Cc1cc(=O)oc2cc(NC(=O)[C@@H](N)CCC(=O)OCc3ccccc3)ccc12", "pH": "pH 7.5", "temperature": "37 °C", "kcat": "5.6 ± 0.28 s⁻¹"}
